# Results pooled from the literature.
# A part holds a random share of what one study measured.

# Sample 1
# Target: Sal-like protein 4, full length isoform A (SALL4, Homo sapiens, UniProt Q9UJQ4, residues 1-1053)
# Sequence of UniProt Q9UJQ4 (whole entry, looked up): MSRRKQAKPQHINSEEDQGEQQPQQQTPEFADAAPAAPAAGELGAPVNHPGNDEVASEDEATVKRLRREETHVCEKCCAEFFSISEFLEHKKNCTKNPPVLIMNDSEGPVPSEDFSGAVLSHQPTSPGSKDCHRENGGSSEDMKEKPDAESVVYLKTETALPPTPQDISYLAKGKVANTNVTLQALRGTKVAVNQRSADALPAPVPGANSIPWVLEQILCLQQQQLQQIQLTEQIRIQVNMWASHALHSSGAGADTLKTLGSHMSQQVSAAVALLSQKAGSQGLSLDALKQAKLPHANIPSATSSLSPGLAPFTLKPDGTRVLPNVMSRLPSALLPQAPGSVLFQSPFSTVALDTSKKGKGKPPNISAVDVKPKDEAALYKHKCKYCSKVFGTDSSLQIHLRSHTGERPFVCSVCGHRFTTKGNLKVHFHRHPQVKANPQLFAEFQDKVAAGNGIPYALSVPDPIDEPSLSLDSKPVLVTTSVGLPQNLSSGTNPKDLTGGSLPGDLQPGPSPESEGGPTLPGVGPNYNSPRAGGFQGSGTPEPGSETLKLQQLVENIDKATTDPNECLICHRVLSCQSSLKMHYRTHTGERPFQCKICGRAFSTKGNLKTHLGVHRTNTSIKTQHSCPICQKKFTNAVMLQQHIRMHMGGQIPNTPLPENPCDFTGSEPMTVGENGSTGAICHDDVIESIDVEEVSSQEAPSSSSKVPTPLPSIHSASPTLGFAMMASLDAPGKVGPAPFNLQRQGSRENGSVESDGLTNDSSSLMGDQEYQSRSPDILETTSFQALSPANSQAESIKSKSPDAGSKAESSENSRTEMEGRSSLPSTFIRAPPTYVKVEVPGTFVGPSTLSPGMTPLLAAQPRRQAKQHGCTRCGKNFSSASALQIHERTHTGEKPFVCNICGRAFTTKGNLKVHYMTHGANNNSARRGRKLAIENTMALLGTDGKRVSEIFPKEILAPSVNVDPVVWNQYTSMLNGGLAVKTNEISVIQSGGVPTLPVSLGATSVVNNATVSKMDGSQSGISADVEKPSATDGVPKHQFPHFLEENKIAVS
# Method: universal PBM
# Molecule type: double-stranded DNA, one strand shown
# Sample: in vitro
# Concentration: 600 nM
# Notes: 8-mer, flanks averaged, mean of replicates
# Direction: higher = stronger binding
Oligonucleotide,E-score
GCACAAAC,0.0154
CACCAAGA,-0.0941
AGTCGGAA,-0.139
CCTAATAG,0.0563
CATTTATC,0.247
ATAGTGAC,0.0718
ACGGCTAT,-0.0109
AACGAGGA,0.0003
ATTTGTAG,0.256
ACCATTCC,-0.0605
AAAGGCTG,-0.148
ACCCTTAC,0.0112
ATCACCAG,0.0623
GCCGATGA,-0.249
ATGTTTTC,0.225
ACTAGTGA,0.0319
CAACATGG,-0.00143
CCCCAGCA,-0.201
GATCTACC,-0.155
CTAAGAGA,-0.0123
GACTGACC,-0.287

# Sample 2
# Target: Ras GTPase-activating protein-binding protein 1, C-terminal RGG region (G3BP1, Homo sapiens, UniProt Q13283)
# Sequence of UniProt Q13283 (whole entry, looked up): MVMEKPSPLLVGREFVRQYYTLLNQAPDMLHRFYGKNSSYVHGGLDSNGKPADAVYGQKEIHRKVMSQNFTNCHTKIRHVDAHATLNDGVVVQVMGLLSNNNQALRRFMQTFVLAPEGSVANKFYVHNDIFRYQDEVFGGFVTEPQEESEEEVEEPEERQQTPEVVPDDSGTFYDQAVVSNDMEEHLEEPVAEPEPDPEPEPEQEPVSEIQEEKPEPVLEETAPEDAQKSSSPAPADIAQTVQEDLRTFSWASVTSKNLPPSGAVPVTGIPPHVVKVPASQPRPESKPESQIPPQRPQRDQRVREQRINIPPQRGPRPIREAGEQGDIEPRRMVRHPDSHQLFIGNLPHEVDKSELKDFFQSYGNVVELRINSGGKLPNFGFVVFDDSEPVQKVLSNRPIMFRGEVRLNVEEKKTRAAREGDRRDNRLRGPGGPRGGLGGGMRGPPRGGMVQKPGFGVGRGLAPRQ
# Method: RNA Bind-n-Seq
# Molecule type: RNA
# Sample: in vitro
# Concentration: 1 µM
# Notes: whole 134-nt RNA, ends assumed
# Together with: 150 mM KCl
# Reference: input library
# Direction: higher = stronger binding
# Shared flanks, not repeated: GGGAGUUCUACAGUCCGACGAUC … UGGAAUUCUCGGGUGUCAAGG
Oligonucleotide,log2 enrichment
UCAAGUCCUGUGCUACACAUCGUAUGUACCGAAUCGGUUUGGUUUUUGGUUUGGAAAGUAUUAUGUUACGCCGUUCGGAUCUGCACUUCC,-1.14
GCAGGAAGUAAAAACAAAUGGAAAUGCUUCGGAUAGUGGCAGGGGUGGGGGUUGCUAAGGAAAGGGUGGGAUGGGAGUGGGUAAAGAAAU,2.1
GCAGGAAGUAAAAACAAAUGGAAAUGCUUCGGAUAGUGGCAGGGGCGGGGGUUGCUAAGGAAAGGGUGGGAUGGGAGUGGGUAAAGAGUU,0.537
AGUCCUGUGCUACACAUCGUAUGUACCGAAUCGGUUUUUGGUUUUUGGGUUUUUGGGAAAGUAUUAUGUUACGCCGUUCGGAUCUGCACU,-1.52
UGGAUCAAGAGGAAGUAAAAAGAAUUACCAGUCACAGGCUGACAUUCCCAUUCGGUCUCCCUUUGGUAUUGUGAAAGCAUCCUGGCUACC,-0.817
UGGCCCUGGUGGCAUGCGGGGAGGAAGAGGUGGCCUCAUGGAUCGUGGCGGUCCCGGUGGAAUGUUCAGAGGUGGCCGUGGUGGAGACAG,0.241
CUUAUGCCUUCCCCACUGGUAUUGAGGGUUUUGAUAAUAAAUUGGUAGGAAAAAAAAGUACCUCCUAGAAGGAAGCCUUCCCCACCAUUU,-0.552
CCUGUGCUACACAUCGUAUGUACCGAAUCGGGGAAAAAAAGGGGAAAAAAAGGGGAGGGGAAAGUAUUAUGUUACGCCGUUCGGAUCUGC,0.44
GUCCUGUGCUACACAUCGUAUGUACCGAAUCGGGGUUUUUGGGGAAAGGGGUUUGGGGAAAGUAUUAUGUUACGCCGUUCGGAUCUGCAC,3.08
UGGCCCUGGUGGCAUGCGGGGAGGAAGAGGUGGCCUCAUGGAUCGUGGUGGUCCCGGUGGAAUGUUCAGAGGUGGCCGUGGUGGAGAUAG,3.58
AGUCCUGUGCUACACAUCGUAUGUACCGAAUCAAAUUUUUAAAUUUAAAUUUUUAAAAAAGUAUUAUGUUACGCCGUUCGGAUCUGCACU,-2.58
AGUCCUGUGCUACACAUCGUAUGUACCGAAUCGGCCCCGGGCCCCGGGGCCCCGGGGAAAGUAUUAUGUUACGCCGUUCGGAUCUGCACU,-2.09
UGGCCCUGGUGGCAUGCGGGGAGGAAGAGGUGGCCUCAUGGAUCGUGGUGGUCCCGGUGGAAUGUUCAGAGGCGGCCGUGGUGGAGACAG,3.44
UCCCUGAAUCACCGACUGGAGGAGAGUUACCUACAAGAGCCUUCAUCCAGGAGCAUCCACACUGCAAUGAUAUAGGAAUGAGGUCUGAAC,-0.798

# Sample 3
# Sequence: GFGFLLFICKLTF
# Molecule type: peptide
# Direction: direction not given
target or system,test,test system,setting,enrichment score
Saccharomyces cerevisiae,"binding, yeast competitive growth sequencing","cyclin D1-Cln2 strain, peptide tiling library",,-0.941
Saccharomyces cerevisiae,"binding, competitive growth deep sequencing",cyclin D3-Cln2 fusion strain,peptide tiling library,-0.803
Saccharomyces cerevisiae,"binding, yeast competitive growth sequencing","cyclin A1-Cln2 strain, peptide tiling library",pooled screen,-1.32
Saccharomyces cerevisiae,"peptide binding, yeast competitive growth sequencing",cyclin E2-Cln2 fusion,library 2,0.116
human cyclin A2,"peptide binding, competitive growth sequencing","Saccharomyces cerevisiae, cyclin A2-Cln2 fusion strain",mutational scanning library 2,0.797

# Sample 4
# Target: RNA binding protein fox-1 homolog 2, RRM domain, GST-SBP tag (RBFOX2, Homo sapiens, UniProt O43251-10, residues 100-194)
# Method: RNA Bind-n-Seq
# Molecule type: RNA
# Sample: in vitro
# Concentration: 365 nM
# Notes: natural RNA segment, single round, ends assumed
# Reference: no-protein control
# Direction: higher = stronger binding
# Shared flanks, not repeated: GGGAGUUCUACAGUCCGACGAUC … UGGAAUUCUCGGGUGCCAA
# Residues (chain): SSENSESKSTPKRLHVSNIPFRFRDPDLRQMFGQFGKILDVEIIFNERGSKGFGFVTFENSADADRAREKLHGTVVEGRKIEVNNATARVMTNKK
Oligonucleotide,RBNS enrichment (R)
UCCUUGCUCUCAAAACAAAACAAUAUAAUCUAUCAAAGGUGUUUUACUCAGUGUUCUAAUUUUUAAAAAAUUUUAUCUGCAUAUUUGCAUCAAAUAUUUAUGUGUAAAAU,2.12
AAGAUGACCAGCAAUGCCUGUAGAAGGCUUUGUCCGUUUUUGGCAGAAGGCCUAGGGCAUCGAAAACUCAGCCUUUUCACUCGUAGCUGAAAAUGGGACUAUUUUGGUAU,0.346
GUAGGCUGAGCUGAGAGGGGUGUUCUUUGGCAAGGUUCUCCCUCCUCUAGUUUCUCCCAGGAGCUGGUCCCAAAAGGUCCUCCCUCAGUGGUCUACUUGCAUAUCAUAGG,0.877
AGACAACAGUGCGGGAGUCCUGAGUGCUGGCUGUGCAGCCAGUUAAGUGUUCAUGUUCUAGUGAGCACGGGCUUGUCAAGGAGCAAAACACUAGAAUAAUUGAGCAGAGG,6.07
GUGCGGGGCAGAGGCCCUUCUCUGCGCCAAAUGUCUGACUACACAGUAUACACAGGACAUUGUUGCUGCCGCCACCGAGACUGGUUUUCUGUCCCUGAGAACAUGACGUU,0.618
GCUCUGCGUGUCACCUGUGCUUCGGGCCCUUCCCACAGGACAUUUCUCUAAGAGAACAAUGUGCUAUGUGAAGAGUAAGUCAACCUGCCUGACAUUUGGAGUGUUCCCCU,0.137
GGGGGCCAGGGGUCAUCGGUUUGACCCCUGACCUAUAAGCCAAGAUACCCCAUAAACACACUCAGAAAGCAGAGAAAAAGGACAAGAGUCUGUGUUUGAGAGGGGGUCUG,0.492
GCUGGACUGACAGUAGGAAGUAGAAAUAAGCUAUGUGUAGUCUUGGAAAGUUCCCACCUCACAGGGAAUGAAACCUAGGGAACACCAGGUACUCGGCGCCCUGUGGACUG,0.722
GGAGAUCUGCCUUCCUACCCUCGGGAAGGGUCACCUAGAGGCUUCUCAGCCCCACCCUCACCCUCUGGCCAGGAUCCUACAAGGCUACAUCCCCUGCUGCUUGGUUGACC,0.352
GUGGGGAUUGAGAAGGGGUGAAUAGAGGCUUGAGACUUUCCUUUGUGUGGUAGGACUUGGAGGAGAAAUCCCCUGGACUUUCACUAACCCUCUGACAUACUCCCCACACC,0.418
UUCUUGAUCAUUGAAUGUGAGACCCUUCUAACAUGAUUUGAGAAGCUGUACAAGUAUAGGCAGAGUUAUUUUCCUGUUUACAUUUUUUUUUUGUUUUGGGGAAAAAAUUG,0.438
UGUUGUUUACUAUGGAAUUAGUAUUACAUUUUGAGGUAAACAAAGAAUUUGUAUUGCUUGAUAAACUAUUAGCUUGUAAAUUAAAAUUUUUUUCUUUACCUCAGUUAACU,0.387

# Sample 5
# Target: RING finger protein unkempt homolog, zinc fingers 1-6, GST-SBP tag (UNK, Homo sapiens, UniProt Q9C0B0, residues 30-357)
# Method: RNA Bind-n-Seq
# Molecule type: RNA
# Sample: in vitro
# Concentration: not given
# Notes: RNA with constant flanks, ends assumed
# Reference: input RNA pool
# Direction: higher = stronger binding
# Shared flanks, not repeated: GGGAGUUCUACAGUCCGACGAUC … CAACAGAGGAUUGAGCAUCA
# Residues (chain): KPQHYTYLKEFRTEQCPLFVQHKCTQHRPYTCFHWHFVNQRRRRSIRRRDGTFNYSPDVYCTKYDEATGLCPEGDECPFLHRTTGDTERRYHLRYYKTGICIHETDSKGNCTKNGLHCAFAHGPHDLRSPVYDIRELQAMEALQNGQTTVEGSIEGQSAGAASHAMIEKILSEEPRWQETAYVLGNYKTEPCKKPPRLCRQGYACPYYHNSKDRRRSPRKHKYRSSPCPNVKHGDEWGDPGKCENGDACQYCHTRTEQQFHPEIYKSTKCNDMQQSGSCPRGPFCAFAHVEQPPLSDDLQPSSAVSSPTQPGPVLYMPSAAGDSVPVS
Oligonucleotide,bound/input enrichment
UUUAUACAAGGAGAAGCACUGGAUCCAAAGCAUGUCUGCAACCCAGCCAUUUUCAGGCUAACCGCUCGUCAGCUUGCUAAAAUCCAUGCUAUUCAUGCACACAAUGGCUGGAUCCCCAAA,0.131 ratio
GGCAAAGGCAAAGGCGGCUCCGGAGAUUCGGCCGUGAAGCAGGUGCAGAUCGACGGCCUGGCCGUAUUAAAGAUAAUCAAACAUUAUCAAGAAGAAGGACAAGGCACUGAGGUUGUUCAG,0.172 ratio
UGAUCUUCUGCUCUUCCCACUUCCUCCCCUUUCUACUGCUCUCCCAUUUUCCCUUGCUGGGAGCCGCCACAUGCUCUUGCCCCCCAACCCUUGUAUAUGGGGACAGUGGGGUCAGUGCAG,0.21 ratio
GCCAUCACGACACUGCAUAAUCUCCUGCUCCAUCAGGAAGGAGCUAAAAUGGCAGUGCGCCCCGCUGGUGGACUGCAGAAAAUGGUUGCUUUGCUCAACAAAACAAACGUGAAAUUCUUG,0.0463 ratio
AAUGUUCAUAUUUUGAGUAAAGGAAGCUAAAACCAUGUUUGCUUUCUGGUACUACAUGCAUCCGCGAAAGGUUAAGUAAGUUUUGUUCUCCACUGAAGUAAUACUUAACAUCUCAGAAAA,0.177 ratio
UCUUUUACCUCAUACUCACCUUAUGUAACAGAACUUAUAAUGGAAUCCAAUGUAGAGCUCACCGCAAAAAAUGACUUGCGCUUUAUAGAUGCUGUCUAUAAGCUUCUUCGUGAUCAAUUU,0.18 ratio
AUCAUGGCUACAAACAGACCAGAUACACUGGAUCCUGCUUUGCUGCGCCCAGGAAGAUCCGACCGAAAAAUACAUAUCGAUUUACCAAAUGAACAAGCAAGAUUAGAUAUAUUGAAAAUC,3.74 ratio
UCGUAUAUCAGAUAUCUGGGACCCAAAGUCCCAACCUUUACAAACCUGGGUCUCUGUUUUACCGAAUUUAAAAUACCUGGGAUUCAGGACCCUGUGUGCACCAAUAUCCGGGGUUCAUCC,0.132 ratio
AGUGCCUAUGAUUAUACAAUAUCACCCAUGGAGAAAGCCAUCGUGAAGACAGACAUUCAGACCGCUGUCCCUUCUGGGUGCUAUGGAAGAGUAGCUCCACGUUCUGGCUUGGCUGUAAAG,0.123 ratio
AUAAUGAAUAUUAAAUGAUUUUUCUUCAGUCACAGUGAGAGCAUCUUGCUUUGUGGUUGAAACCGGCCGUGUAUGUCAGUCUUUGCUUUAGGCUGUUUCUCAUCUAAGUGUUUGAAUUAA,0.327 ratio
AAAAGUGAGGAUUUGGGGAAAUCAUCAAGAUCGAAAACAGAGAGAGAUGAUAGAUAUUGCCGCUACUCAAAACUUGAACGAGAUACUCGGUAUGUAUCUUCCCGAUGUCGGUCCGAAAGA,0.168 ratio

# Some of these lines once more (sample 5):
Oligonucleotide,bound/input enrichment
UCUUUUACCUCAUACUCACCUUAUGUAACAGAACUUAUAAUGGAAUCCAAUGUAGAGCUCACCGCAAAAAAUGACUUGCGCUUUAUAGAUGCUGUCUAUAAGCUUCUUCGUGAUCAAUUU,0.18 ratio
AUCAUGGCUACAAACAGACCAGAUACACUGGAUCCUGCUUUGCUGCGCCCAGGAAGAUCCGACCGAAAAAUACAUAUCGAUUUACCAAAUGAACAAGCAAGAUUAGAUAUAUUGAAAAUC,3.74 ratio
AGUGCCUAUGAUUAUACAAUAUCACCCAUGGAGAAAGCCAUCGUGAAGACAGACAUUCAGACCGCUGUCCCUUCUGGGUGCUAUGGAAGAGUAGCUCCACGUUCUGGCUUGGCUGUAAAG,0.123 ratio
UCGUAUAUCAGAUAUCUGGGACCCAAAGUCCCAACCUUUACAAACCUGGGUCUCUGUUUUACCGAAUUUAAAAUACCUGGGAUUCAGGACCCUGUGUGCACCAAUAUCCGGGGUUCAUCC,0.132 ratio
